Results gathered from unrelated publications.
Each line is one published result; not all experiments were run side by side. ± marks the error that the study gave.
Urease: Urease (Canavalia ensiformis, UniProt P07374)
Sequence of UniProt P07374 (whole entry, looked up): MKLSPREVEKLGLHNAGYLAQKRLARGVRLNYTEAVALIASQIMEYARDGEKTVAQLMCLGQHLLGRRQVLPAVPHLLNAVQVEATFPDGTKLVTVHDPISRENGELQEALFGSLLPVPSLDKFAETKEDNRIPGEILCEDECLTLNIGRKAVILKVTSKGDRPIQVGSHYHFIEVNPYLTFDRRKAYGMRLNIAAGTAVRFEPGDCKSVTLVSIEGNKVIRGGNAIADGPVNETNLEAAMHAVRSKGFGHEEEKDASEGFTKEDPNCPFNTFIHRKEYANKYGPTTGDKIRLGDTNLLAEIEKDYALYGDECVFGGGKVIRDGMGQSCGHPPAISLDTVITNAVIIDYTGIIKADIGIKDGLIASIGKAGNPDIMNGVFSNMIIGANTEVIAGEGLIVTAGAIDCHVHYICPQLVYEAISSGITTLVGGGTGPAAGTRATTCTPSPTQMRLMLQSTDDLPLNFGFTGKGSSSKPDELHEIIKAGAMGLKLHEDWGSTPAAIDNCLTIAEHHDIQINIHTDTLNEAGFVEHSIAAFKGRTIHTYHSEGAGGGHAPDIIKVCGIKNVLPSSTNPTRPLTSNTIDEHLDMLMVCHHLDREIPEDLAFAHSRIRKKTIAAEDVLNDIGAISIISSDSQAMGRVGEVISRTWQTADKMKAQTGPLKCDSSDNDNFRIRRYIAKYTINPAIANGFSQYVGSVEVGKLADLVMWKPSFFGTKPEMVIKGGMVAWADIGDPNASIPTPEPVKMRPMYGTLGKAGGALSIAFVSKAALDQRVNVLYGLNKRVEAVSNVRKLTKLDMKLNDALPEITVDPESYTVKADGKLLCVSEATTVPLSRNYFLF
Sequence of UniProt Q9HC16 (whole entry, looked up): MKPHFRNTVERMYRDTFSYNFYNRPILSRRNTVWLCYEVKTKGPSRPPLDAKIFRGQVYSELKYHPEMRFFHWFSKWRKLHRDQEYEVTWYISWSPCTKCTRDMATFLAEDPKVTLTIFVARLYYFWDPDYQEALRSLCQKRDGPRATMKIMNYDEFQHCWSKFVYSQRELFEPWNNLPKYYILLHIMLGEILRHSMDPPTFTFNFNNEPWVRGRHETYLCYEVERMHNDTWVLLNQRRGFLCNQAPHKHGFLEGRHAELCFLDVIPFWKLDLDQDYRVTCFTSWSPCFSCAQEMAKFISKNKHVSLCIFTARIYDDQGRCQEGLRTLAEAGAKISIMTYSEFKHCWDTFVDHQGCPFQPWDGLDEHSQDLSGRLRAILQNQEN
Sequence of UniProt P15907 (whole entry, looked up): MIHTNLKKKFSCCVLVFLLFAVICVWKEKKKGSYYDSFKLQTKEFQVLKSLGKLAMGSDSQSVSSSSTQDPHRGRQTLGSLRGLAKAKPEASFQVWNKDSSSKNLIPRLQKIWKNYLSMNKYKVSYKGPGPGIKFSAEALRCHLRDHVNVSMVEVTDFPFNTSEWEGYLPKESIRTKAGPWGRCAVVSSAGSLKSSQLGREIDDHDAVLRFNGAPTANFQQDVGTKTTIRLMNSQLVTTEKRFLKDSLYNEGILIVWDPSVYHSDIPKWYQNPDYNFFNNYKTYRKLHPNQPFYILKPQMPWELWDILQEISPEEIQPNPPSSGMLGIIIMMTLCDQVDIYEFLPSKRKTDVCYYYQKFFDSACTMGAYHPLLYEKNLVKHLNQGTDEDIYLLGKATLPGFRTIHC
Sequence of UniProt P03956 (whole entry, looked up): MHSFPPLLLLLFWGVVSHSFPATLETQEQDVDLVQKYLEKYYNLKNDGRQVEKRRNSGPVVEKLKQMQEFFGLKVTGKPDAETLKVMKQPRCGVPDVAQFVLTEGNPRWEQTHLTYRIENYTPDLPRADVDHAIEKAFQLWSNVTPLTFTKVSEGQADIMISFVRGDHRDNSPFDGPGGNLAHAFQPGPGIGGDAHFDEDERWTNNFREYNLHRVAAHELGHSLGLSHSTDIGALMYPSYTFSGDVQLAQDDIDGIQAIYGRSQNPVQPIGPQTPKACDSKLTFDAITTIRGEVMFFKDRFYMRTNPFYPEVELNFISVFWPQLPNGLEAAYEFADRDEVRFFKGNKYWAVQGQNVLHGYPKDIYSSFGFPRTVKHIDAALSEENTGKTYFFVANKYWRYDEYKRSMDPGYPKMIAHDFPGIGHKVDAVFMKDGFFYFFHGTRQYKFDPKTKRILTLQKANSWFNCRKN
Sequence of UniProt Q99808 (whole entry, looked up): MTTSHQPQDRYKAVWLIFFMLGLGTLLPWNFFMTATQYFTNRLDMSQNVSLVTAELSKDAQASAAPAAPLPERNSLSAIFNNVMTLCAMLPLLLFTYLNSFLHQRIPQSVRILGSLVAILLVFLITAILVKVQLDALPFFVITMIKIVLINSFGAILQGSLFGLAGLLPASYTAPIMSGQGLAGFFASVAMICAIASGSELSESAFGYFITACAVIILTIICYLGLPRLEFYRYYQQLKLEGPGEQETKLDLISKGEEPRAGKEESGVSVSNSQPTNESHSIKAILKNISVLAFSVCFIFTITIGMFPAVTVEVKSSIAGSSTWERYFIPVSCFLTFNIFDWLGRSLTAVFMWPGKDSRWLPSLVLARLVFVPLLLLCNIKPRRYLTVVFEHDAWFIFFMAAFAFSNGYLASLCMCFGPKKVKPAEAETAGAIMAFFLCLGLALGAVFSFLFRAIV
Sequence of UniProt P10635 (whole entry, looked up): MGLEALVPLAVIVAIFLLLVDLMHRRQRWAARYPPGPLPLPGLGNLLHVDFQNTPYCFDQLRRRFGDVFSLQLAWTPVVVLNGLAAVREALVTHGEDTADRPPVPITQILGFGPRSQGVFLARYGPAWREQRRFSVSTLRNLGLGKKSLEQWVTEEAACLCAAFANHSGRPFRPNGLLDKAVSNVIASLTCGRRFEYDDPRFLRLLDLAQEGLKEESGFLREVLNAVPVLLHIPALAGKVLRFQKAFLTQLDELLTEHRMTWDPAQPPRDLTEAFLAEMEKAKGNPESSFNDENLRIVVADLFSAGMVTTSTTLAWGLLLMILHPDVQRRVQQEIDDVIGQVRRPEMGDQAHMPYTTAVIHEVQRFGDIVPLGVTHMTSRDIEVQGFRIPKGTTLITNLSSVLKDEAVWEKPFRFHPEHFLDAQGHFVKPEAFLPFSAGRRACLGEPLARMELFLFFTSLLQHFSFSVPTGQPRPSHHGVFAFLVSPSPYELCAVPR
Sequence of UniProt Q13547 (whole entry, looked up): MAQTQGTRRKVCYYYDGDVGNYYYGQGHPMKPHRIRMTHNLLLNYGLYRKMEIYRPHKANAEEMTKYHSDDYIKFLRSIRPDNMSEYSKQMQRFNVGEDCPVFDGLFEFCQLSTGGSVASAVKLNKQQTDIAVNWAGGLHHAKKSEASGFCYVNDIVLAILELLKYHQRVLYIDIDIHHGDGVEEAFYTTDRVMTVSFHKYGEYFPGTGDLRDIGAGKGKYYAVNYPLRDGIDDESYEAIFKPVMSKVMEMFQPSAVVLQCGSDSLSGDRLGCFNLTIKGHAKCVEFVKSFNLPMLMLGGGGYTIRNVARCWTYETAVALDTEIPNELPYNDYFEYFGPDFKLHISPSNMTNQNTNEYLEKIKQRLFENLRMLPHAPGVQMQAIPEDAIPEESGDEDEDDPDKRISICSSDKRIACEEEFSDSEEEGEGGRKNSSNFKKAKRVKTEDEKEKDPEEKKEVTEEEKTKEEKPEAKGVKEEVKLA
Sequence of UniProt Q16644 (whole entry, looked up): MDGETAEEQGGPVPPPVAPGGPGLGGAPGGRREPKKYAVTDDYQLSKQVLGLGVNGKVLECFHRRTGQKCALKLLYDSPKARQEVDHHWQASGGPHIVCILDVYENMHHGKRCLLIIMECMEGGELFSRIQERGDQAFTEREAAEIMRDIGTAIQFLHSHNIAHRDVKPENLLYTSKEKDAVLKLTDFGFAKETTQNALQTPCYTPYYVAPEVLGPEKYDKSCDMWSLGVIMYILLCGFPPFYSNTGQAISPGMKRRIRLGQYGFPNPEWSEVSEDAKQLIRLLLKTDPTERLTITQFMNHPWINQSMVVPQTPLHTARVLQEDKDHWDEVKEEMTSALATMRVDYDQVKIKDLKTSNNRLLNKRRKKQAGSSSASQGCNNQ
Sequence of UniProt Q8K4F5 (whole entry, looked up): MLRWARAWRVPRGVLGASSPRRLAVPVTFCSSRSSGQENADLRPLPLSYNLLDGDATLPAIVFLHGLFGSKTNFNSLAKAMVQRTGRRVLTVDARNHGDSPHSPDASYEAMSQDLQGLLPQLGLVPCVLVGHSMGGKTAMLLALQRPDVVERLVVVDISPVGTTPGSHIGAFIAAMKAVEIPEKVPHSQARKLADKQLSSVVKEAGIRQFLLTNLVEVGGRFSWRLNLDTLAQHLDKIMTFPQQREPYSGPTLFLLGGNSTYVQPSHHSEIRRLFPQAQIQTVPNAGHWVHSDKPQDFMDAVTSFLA
Sequence of UniProt P20813 (whole entry, looked up): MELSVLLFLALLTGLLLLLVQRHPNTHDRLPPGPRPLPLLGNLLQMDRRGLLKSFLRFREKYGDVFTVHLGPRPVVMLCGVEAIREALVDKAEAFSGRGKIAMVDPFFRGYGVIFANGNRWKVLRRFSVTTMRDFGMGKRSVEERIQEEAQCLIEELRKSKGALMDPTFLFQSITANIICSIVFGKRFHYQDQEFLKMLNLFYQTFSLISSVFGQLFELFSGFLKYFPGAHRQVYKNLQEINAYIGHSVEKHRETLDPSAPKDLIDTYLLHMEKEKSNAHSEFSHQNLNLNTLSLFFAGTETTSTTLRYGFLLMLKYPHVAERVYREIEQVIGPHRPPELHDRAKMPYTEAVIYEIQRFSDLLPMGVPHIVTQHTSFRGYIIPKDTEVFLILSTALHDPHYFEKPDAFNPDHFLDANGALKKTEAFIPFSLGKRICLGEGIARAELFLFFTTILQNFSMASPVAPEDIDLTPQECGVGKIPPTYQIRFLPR

CC(C)[C@H](NC(=O)[C@@H](N)Cc1ccc(O)cc1)C(=O)N[C@@H](CO)C(=O)NCC(=O)N[C@@H](CCCCN)C(=O)N[C@@H](C)C(=O)N[C@@H](CCCNC(=N)N)C(=O)NCC(=O)N[C@@H](Cc1c[nH]c2ccccc12)C(=O)N[C@@H](Cc1ccccc1)C(=O)O — IC50 (DNA dC->dU-editing enzyme APOBEC-3G (APOBEC3G, Homo sapiens, UniProt Q9HC16); deamination activity, inhibitor, PCR/StuI restriction; pH 7.4, 37 °C, added: ssDNA substrate 1 fmol/µL): > 100000 nM
COc1ccc(N=Nc2cccc(NC(=O)CCCCCCC(=O)NO)c2)cc1 — IC50 (Histone deacetylase 1 (HDAC1, Homo sapiens, UniProt Q13547); enzyme activity, inhibitor; trans isomer): 40 ± 10 nM
C/C=C1/CN2CCc3c([nH]c4ccccc34)[C@@H]2C[C@@H]1/C(=C\OC)C(=O)OC — IC50 (5-hydroxytryptamine receptor 5A (HTR5A, Homo sapiens, UniProt P47898); ligand displacement, radioligand; cell membranes): 6840 nM
CC[C@H](C)[C@H](NC(=O)[C@H](Cc1ccc(O)cc1)NC(=O)[C@H](CCC(=O)O)NC(=O)[C@H](Cc1c[nH]c2ccccc12)NC(=O)[C@H](CO)NC(=O)[C@H](CO)NC(=O)CNC(=O)CNC(=O)[C@H](CC(=O)O)NC(=O)[C@@H](N)CCC(=O)O)C(=O)N[C@@H](Cc1c[nH]c2ccccc12)C(=O)N[C@H](C(=O)N[C@@H](CC(C)C)C(=O)N1CCC[C@H]1C(=O)N[C@@H](CO)C(=O)NCC(=O)O)[C@@H](C)O — IC50 (Moesin, with CD44 (Homo sapiens, UniProt P26038); CD44 peptide binding, TR-FRET; added: CD44 peptide): ~220 nM
CCC(=O)Nc1cc(Nc2cc(NC3CC3)n3ncc(C#N)c3n2)ccc1N(C)CCNC — IC50 (Casein kinase II subunit alpha' (CSNK2A2, Homo sapiens, UniProt P19784); target engagement in cells, BRET): 2.51 nM
Cc1cccc(-c2nc(Nc3ccncn3)c3sccc3n2)n1 — IC50 (Cytochrome P450 2D6 (CYP2D6, Homo sapiens, UniProt P10635); inhibitor): 42000 nM
Cc1cc(Nc2nc(C[C@@]3(C(=O)O)CCN(Cc4cccc(Cl)c4F)[C@H](C)C3)cc(C)c2F)n[nH]1 — IC50 (Voltage-gated inwardly rectifying potassium channel KCNH2 (KCNH2, Homo sapiens, UniProt Q12809); ion current, inhibitor, patch clamp): 26700 nM
O=C(C[P+]([Au-][Cl])(c1ccccc1)c1ccccc1)[O][Ti+2][O]C(=O)C[P+]([Au-][Cl])(c1ccccc1)c1ccccc1.c1cc[cH-]c1.c1cc[cH-]c1 — IC50 (MAP kinase-activated protein kinase 3 (MAPKAPK3, Homo sapiens, UniProt Q16644); enzyme activity, inhibitor, radiometric): 91 nM
CC(C)[C@H](NC(=O)[C@H]1NC(=O)[C@H](CO)NC(=O)[C@H](CC(N)=O)NC(=O)[C@@H](N)Cc2c[nH]c3cc(ccc23)C1C(N)=O)C(=O)N[C@H]1Cc2cn(cn2)C(c2ccc(O)cc2)[C@@H](C(=O)N[C@@H](CCCNC(=N)N)C(=O)N[C@@H](Cc2ccccc2)C(=O)O)NC(=O)[C@H](CO)NC1=O (stereo partly shown) — IC50 (bamA, in BAM complex (Escherichia coli, UniProt P0A940); inhibitor): 16 ± 2 nM
COc1ccc(F)cc1S(=O)(=O)Nc1cnc2c(c1)C(=O)NCCO2 — IC50 (Alkaline phosphatase, tissue-nonspecific isozyme (Mus musculus, UniProt P09242); enzyme activity, inhibitor): 13 nM
NC1CCc2cc(O)c(O)cc2C1 (stereo not shown) — IC50 (Carbamate kinase (Giardia intestinalis, UniProt A8BB85); enzyme activity, inhibitor, coupled luminescence): 13000 nM
CCCCCCCCCC(=O)N[C@@H](CCCNC(=N)N)C(=O)N[C@H](C(=O)N[C@@H](CCCCN)C(=O)N[C@@H](CCCNC(=N)N)C(=O)CCl)C(C)C — IC50 (Furin (FURIN, Homo sapiens, UniProt P09958); enzyme activity, inhibitor): 0.794 nM
Cc1cc(S(=O)(=O)Nc2ncccn2)c(F)cc1N(C)C1CCN([C@H](C)c2ccccc2)CC1 — IC50 (Sodium channel protein type 8 subunit alpha (SCN8A, Homo sapiens, UniProt Q9UQD0); sodium current, inhibitor, automated patch clamp; inactivated state, Vh -45 mV): 78 nM
CC[C@H](C)[C@@H]1NC(=O)[C@H](CCCNC(=N)N)NC(=O)[C@H](CCCNC(=N)N)NC(=O)[C@H](CC(C)C)NC(=O)[C@@H](NC(=O)[C@H](C)NC(=O)[C@H](C)NC(C)=O)CSCc2ccc3c(ccc4cc(ccc43)CSC[C@@H](C(=O)N[C@H](C(=O)N[C@@H](CC(N)=O)C(=O)N[C@@H](CC(C)C)C(=O)N[C@@H](CCCNC(=N)N)C(=O)N[C@@H](CCC(N)=O)C(=O)N[C@@H](CCCCN)C(=O)N[C@@H](CC(C)C)C(=O)N[C@@H](CC(C)C)C(=O)N[C@@H](CC(N)=O)C(N)=O)C(C)C)NC(=O)[C@H](CC(=O)O)NC(=O)CNC1=O)c2 — IC50 (Induced myeloid leukemia cell differentiation protein Mcl-1 (MCL1, Homo sapiens, UniProt Q07820); ligand displacement, FP): 71 nM
CCCCCc1cc(O)c2c(c1)OC(C)(C)C1CCC(C(=O)OC3OC(C(=O)O)C(O)C(O)C3O)=CC21 (stereo not shown) — IC50 (Cytochrome P450 2B6 (CYP2B6, Homo sapiens, UniProt P20813); inhibitor; human, pooled liver microsomes; pH 7.4, added: bupropion): 2300 ± 1000 nM
COC(=O)c1ccc(NC(=O)c2cccc(CC3CCCCC3)n2)c(Cc2ccccc2)c1 — IC50 (Capsid scaffolding protein, protease domain (Human herpesvirus 8 type P, UniProt Q2HRB6); pH 8): no inhibition
CC(C)[C@H](NC(=O)c1ccc(CCc2nc3c(c(=O)[nH]2)CCC3)cc1)C(=O)NC1COC1 — IC50 (Interstitial collagenase (MMP1, Homo sapiens, UniProt P03956); enzyme activity, inhibitor): > 5000 nM
C[C@H](CCC(=O)N[C@H](CC(c1c[nH]c2ccc(N=[N+]=[N-])cc12)c1c[nH]c2ccc(N=[N+]=[N-])cc12)C(=O)O)[C@H]1CC[C@H]2[C@@H]3CC[C@@H]4C[C@H](O)CC[C@]4(C)[C@H]3CC[C@]12C (stereo partly shown) — IC50 (Beta-galactoside alpha-2,6-sialyltransferase 1 (ST6GAL1, Homo sapiens, UniProt P15907); enzyme activity, UPLC): 3300 ± 100 nM
COc1ccc(CC[C@H]2OC(=O)[C@@H]3CCCCN3C(=O)C(=O)C(C)(C)COC(=O)/C=C/CCN(C)C(=O)[C@H](CC(C)C)N(C)C(=O)[C@@H]3CCCN3C(=O)[C@H](Cc3ccccc3)N(C)C(=O)[C@H](c3ccccc3)NC(=O)CCC(=O)Nc3cccc2c3)cc1OC — IC50 (Equilibrative nucleoside transporter 1 (SLC29A1, Homo sapiens, UniProt Q99808); transporter uptake, inhibitor, radiometric): 3.2 nM
CCCC[C@H](NC(=O)[C@H](C)NC(=O)[C@H](Cc1ccccc1)NC(=O)[C@H](Cc1ccccc1)NC[C@H](CC(C)C)NC(=O)[C@@H](NC(=O)[C@@H](N)CCCNC(=N)N)C(C)C)C(=O)O — IC50 (Gag-Pol polyprotein, protease (gag-pol, Human immunodeficiency virus 1, UniProt P12497); enzyme activity, inhibitor, FRET; NL4-3 wild type): > 1000 nM
COCC1CCCCN1C(=O)n1cc(C(O)(c2ccccc2)c2ccccc2)nn1 (stereo not shown) — IC50 (sn-1-specific diacylglycerol lipase ABHD11 (Mus musculus, UniProt Q8K4F5); enzyme activity in cells, inhibitor): 0.14 to 0.17 nM
CSCC[C@H](NC(=O)[C@H](CC(C)C)NC(=O)[C@H](Cc1cnc[nH]1)NC(=O)CNC(=O)[C@@H](NC(=O)[C@H](C)NC(=O)[C@H](Cc1c[nH]c2ccccc12)NC(=O)[C@H](CCC(N)=O)NC(=O)[C@H](N)Cc1ccccc1)C(C)C)C(N)=O — IC50 (Neuromedin-B receptor (NMBR, Homo sapiens, UniProt P28336); NMBR activity, cell-based): 0.21 to 2.1 nM
Nc1nc2c(c(=O)[nH]1)[n+](Cc1ccc(S(=O)(=O)F)cc1)cn2[C@@H]1O[C@H](COP(=O)(O)O)[C@@H](O)[C@H]1O — IC50 (7-methylguanosine phosphate-specific 5'-nucleotidase (NT5C3B, Homo sapiens, UniProt Q969T7); m7GMP dephosphorylation, inhibitor, malachite green; 1 h preincubation, pH 7.5, 30 °C, added: m7GMP 100 µM): 67 ± 11 nM
CC(=O)N1CCC[C@H]1C(=O)N[C@@H](CC(C)C)C(=O)N[C@H]1C[C@H](CCCCCCCCc2ccccc2)C(=O)NCCCC[C@@H](C(N)=O)NC(=O)[C@H]([C@@H](C)OP(=O)(O)O)NC(=O)[C@H](CO)NC1=O — IC50 (Serine/threonine-protein kinase PLK2, polo-box domain (PLK2, Homo sapiens, UniProt Q9NYY3); polo-box domain binding, inhibitor, fluorescence polarization; isolated polo-box domain): 600 ± 20 nM
CCOC(=O)C/C(C)=N/NC(=O)c1nc2ccccc2n(C)c1=O — IC50 (Prostaglandin G/H synthase 2 (PTGS2, Ovis aries, UniProt P79208); enzyme activity, inhibitor, ELISA): 2730 nM
CC(=O)N[C@@H](CC(C)C)C(=O)N[C@@H](CCC(=O)O)C(=O)N[C@@H](CO)C(=O)N[C@@H](CC(=O)O)C(=O)CCl — IC50 (Caspase-8 (CASP8, Homo sapiens, UniProt Q14790); enzyme activity, inhibitor, fluorescence): 50 nM
CC[C@H](C)[C@H](NC(=O)[C@H](CC(C)C)NC(=O)[C@@H](NC(=O)[C@@H](N)CCCCN)[C@@H](C)CC)C(=O)N[C@@H](Cc1ccc(O)cc1)C(=O)NCC(=O)O — IC50 (Angiotensin-converting enzyme (ACE, Oryctolagus cuniculus, UniProt P12822); enzyme activity, inhibitor): 53300 nM
CC(=O)CCC1C(=O)NC(C(C)C)C(=O)NC(Cc2cc(O)cc(F)c2)C(=O)N2CCCC(N2)C(=O)OC(C(C)=CC=CC(=O)N2CCCCO2)CC=CC=CC(O)C(C)C1O (stereo not shown) — IC50 (ATP-binding cassette sub-family C member 2 (ABCC2, Homo sapiens, UniProt Q92887); efflux transport, inhibitor; membrane vesicles; added: estradiol 17β-glucuronide 1 µM): > 50000 nM
O=C1c2ccc(O)c(O)c2C(=O)N1Cc1cccc(Cl)c1F — IC50 (Gag-Pol polyprotein, integrase (gag-pol, Human immunodeficiency virus 1, UniProt P12497); 3'-processing, inhibitor, gel-based; recombinant wild-type integrase): 29000 ± 4300 nM
CNCP(C)(=O)O — IC50 (Urease; enzyme activity, inhibitor, absorbance; pH 7): 884000 nM
O=C(NO)NCCc1cccs1 — IC50 (Urease; enzyme activity, inhibitor, absorbance): 12200 nM
